Experimental data pooled from the literature.
Every numbered part comes from another study and shows a few of its results, in no order. Positions count from the first letter of the parent shown.

Sample 1 — technique: RNA Bind-n-Seq; molecule type: RNA; matrix: in vitro; concentration: 365 nM; baseline: no-protein control; direction: higher = stronger binding
Target: RNA binding protein fox-1 homolog 2, RRM domain, GST-SBP tag (RBFOX2, Homo sapiens, UniProt O43251-10, residues 100-194)
Setting: natural RNA segment, single round, ends assumed
Residues (chain): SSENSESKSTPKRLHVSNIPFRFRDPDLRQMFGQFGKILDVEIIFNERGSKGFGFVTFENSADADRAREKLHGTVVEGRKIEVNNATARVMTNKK
Under “RBNS enrichment (R)”, `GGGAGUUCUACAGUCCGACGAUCUCAUACAGUGAGGGUGUUAAGUCAGGUAGCUGGAGACUUCCCAUCGCCUCUGACACUUUUGGAGGUGAUAUGAUACAGCCCCCGACCAAACCAGGCUUUGUGGGGGGUGAUGGAAUUCUCGGGUGCCAA` is recorded as 0.363.
Under “RBNS enrichment (R)”, `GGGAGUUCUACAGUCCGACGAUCUCUUCUACUCUAGAAGAAAGACUUUGGAAGCAGCUGCUGCUGCUGCCACCACUCCUGUCAGCAAGUGCUCAGAGCAGGUGGGAGGCACAGAUUGUCCGUGGGAGGGCUCCUGGAAUUCUCGGGUGCCAA` is recorded as 0.438.
`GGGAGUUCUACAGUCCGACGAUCUUGCCCUCCUCCUUCAGCCUGCCCCUGCCUUGGGCUGCCCUUCCCCUGGUGUACUCCUGAGGUGUCUGCCCCAGCUGGCUGCCCUGGGAGAGUGGCUGGAUGGCUUUGGCUGGAAUUCUCGGGUGCCAA`: “RBNS enrichment (R)” 0.239.
`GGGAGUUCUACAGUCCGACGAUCCUCUCCGCUCUUUCCAGCAAAGCUGCUCAGAGAGGGUGUCCAGCACAGUGGAGAGGCCGGAAGUGAGACGGGCAGACGGCACCUGCAGCCUGAAACGCACCGCUCCUGCGUGGAAUUCUCGGGUGCCAA`: “RBNS enrichment (R)” 0.567.
Under “RBNS enrichment (R)”, `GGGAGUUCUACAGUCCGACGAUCACUCUUGGACUCAUAGGGCAGAAUGAAGGGCUGUAAAGAUGAGGGGGUAUUUCUUCUACCCUAUCUUCUUUCAUUGUCAUUCCAAGGGCAGUAGGCCAAGAAAUUAUCUUUGGAAUUCUCGGGUGCCAA` is recorded as 0.33.
Under “RBNS enrichment (R)”, `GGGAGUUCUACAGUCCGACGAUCAUGCUUAUGUCAGAAUGUGUGGGCUUUGGUUUAAAGGACAUAACCUCUCCGCUUGUGACAAAGUCAUUGUUGCCAUCAGGAUUUCAAGUAAUGGGCGUAUCUCAGGGCUAUGGAAUUCUCGGGUGCCAA` is recorded as 0.874.
`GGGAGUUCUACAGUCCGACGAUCCCCGAGCCCUGACUCCUGGACUCCGGAGGACUGAGCCCCCACCGGAACUGGGCUGGCGCUUGGAUCUGGGGUGGGAGUAACAGGGCAGAAAUGAUUAAAAUGUUUGAGCAUGGAAUUCUCGGGUGCCAA`: “RBNS enrichment (R)” 0.883.
`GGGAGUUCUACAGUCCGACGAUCGACUCGGGCUCCUGUGCCCUUAUUCAGGAAAAGCCUCUGUGUCACUGGCUGCCUCCACUCCCACUUCCCUGACACUGCGGGGCUUGGCUGAGAGAGUGGCAUUGGCAGCAUGGAAUUCUCGGGUGCCAA`: “RBNS enrichment (R)” 2.65.
`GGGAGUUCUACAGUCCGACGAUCUUAAGGGUUAGCUUUGAGUAUGUUACUGUCCUUCUAUGACAAGACCAAAGGAACAAACUCCUUGGUGAAUCUGGAGUUCAGCUUUAGUUUUCAAACACAAUCUGAAAUCUUGGAAUUCUCGGGUGCCAA`: “RBNS enrichment (R)” 0.333.
`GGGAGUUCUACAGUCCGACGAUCUCCUUUUAAAUCUCCCUCAAUCACAUUUGGUAGUGAUUUUUGACUUAGUCUGGUAGUCACCCAGCUUAAUAUCUAGUUAAAGCUAACCAUAGUAUACUUGUUAUAUAUUAUGGAAUUCUCGGGUGCCAA`: “RBNS enrichment (R)” 1.07.
For `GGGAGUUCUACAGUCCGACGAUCCAGAAGUAGGCUGUGUCCCAUCAGAUCAAUCUGCACCUUCCUGUGGUUGUGCAAACAUCACGGGGCCCUACCCUGAUCCCCAAGGCCCCACCAUCACUGCCCAAGGGGGUUGGAAUUCUCGGGUGCCAA`, “RBNS enrichment (R)” read 0.336.
`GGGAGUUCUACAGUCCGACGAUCUUGUUCCUAUCCAGGUUCAGGGCCUUCAGGGGGCCUCUUUUCAUUUUCUCCCACAGGCCUCUCUUUCUUUCUAGGUUGCUGGGGAGAAAUGGGUACCCUAUGAUCCCCCUUGGAAUUCUCGGGUGCCAA`: “RBNS enrichment (R)” 0.395.

Sample 2 — technique: DHFR PCA, deep sequencing; matrix: yeast; with: (+)-ABA 0.0091 µM; baseline: wild-type fitted maximum; direction: higher = stronger binding
Target: ABI1, truncated, D143A, DHFR fusion (Arabidopsis thaliana)
Setting: methotrexate growth selection, single substitutions
Starting sequence: PYL1, truncated, DHFR fusion (Arabidopsis thaliana); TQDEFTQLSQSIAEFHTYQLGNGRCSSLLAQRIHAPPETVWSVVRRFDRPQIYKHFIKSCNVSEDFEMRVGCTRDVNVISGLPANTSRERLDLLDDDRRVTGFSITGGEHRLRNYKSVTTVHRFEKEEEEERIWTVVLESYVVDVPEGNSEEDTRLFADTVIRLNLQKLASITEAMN
For `S140C`, “relative binding score” read 5.79%.
Under “relative binding score”, `L82T` is recorded as 10.8%.
`V40L` — result for “relative binding score”: -1.51%.
`D75A` — result for “relative binding score”: 4.29%.
`T6R`: “relative binding score” 51.1%.
Under “relative binding score”, `K54L` is recorded as -0.376%.
`S80L`: “relative binding score” 44.2%.
`N149G` — result for “relative binding score”: 58.1%.
Under “relative binding score”, `L29R` is recorded as -0.465%.
`H110M` — result for “relative binding score”: 30.3%.
`A30W` — result for “relative binding score”: 11.9%.
`Q19C` — result for “relative binding score”: 6.75%.
`T101N` — result for “relative binding score”: 1.16%.
For `G102M`, “relative binding score” read -1.49%.
`S80R`: “relative binding score” 5.86%.
Under “relative binding score”, `K58P` is recorded as -8.66%.
For `V70I`, “relative binding score” read 20.5%.

Sample 3 — target: CCNE1, cyclin fold, Cln2 fusion (human); technique: yeast growth competition, sequencing; matrix: yeast; setting: strong parent motif; baseline: not given; direction: higher = stronger binding
Starting sequence: PKN2 docking peptide (human); VSAVRKLDFSDTM
For `D8C`, “normalised enrichment score” read 4.5.
Under “normalised enrichment score”, `D11N` is recorded as 5.01.
`D8E`: “normalised enrichment score” 5.04.
For `F9L`, “normalised enrichment score” read 0.876.
`A3S` — result for “normalised enrichment score”: 1.97.
`D8N`: “normalised enrichment score” 4.97.
For `K6I`, “normalised enrichment score” read 4.53.
`D11L`: “normalised enrichment score” 4.99.
`S10A`: “normalised enrichment score” 5.41.
Under “normalised enrichment score”, `K6Y` is recorded as 3.18.
`A3Q` — result for “normalised enrichment score”: 0.522.
`D11T` — result for “normalised enrichment score”: 4.9.
`D11Q` — result for “normalised enrichment score”: 4.87.
`A3L` — result for “normalised enrichment score”: 1.87.
Under “normalised enrichment score”, `L7Q` is recorded as 0.0198.
Under “normalised enrichment score”, `V4G` is recorded as 0.277.

Sample 4 — target: ATF2, bZIP domain (human); technique: DHFR protein complementation; matrix: yeast; baseline: wild-type JUN-FOS pair; direction: higher = stronger binding
Setting: single substitutions, most at no-binding floor
Starting sequence: JUN, bZIP domain (human); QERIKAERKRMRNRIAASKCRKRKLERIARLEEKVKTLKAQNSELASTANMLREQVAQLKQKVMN; partner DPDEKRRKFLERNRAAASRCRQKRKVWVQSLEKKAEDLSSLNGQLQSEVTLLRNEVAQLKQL
The binding fitness of `N42W` is reported as -1.42 natural log.
`K34R` has a binding fitness of -1.29 natural log.
For `E33R`, the binding fitness was -1.41 natural log.
`T48Y` gave a binding fitness of -1.53 natural log.
`L52E` has a binding fitness of -1.46 natural log.
For `A46C`, the binding fitness was -1.38 natural log.
With `M51R` the binding fitness was -1.25 natural log.
For `M51T`, the binding fitness was -1.42 natural log.
The binding fitness of `E44K` is reported as -1.49 natural log.
For `T37W`, the binding fitness was -1.29 natural log.
For `E44H`, the binding fitness was -1.5 natural log.
With `K39L` the binding fitness was -1.32 natural log.
With `E33T` the binding fitness was -1.44 natural log.
`V35H` has a binding fitness of -1.52 natural log.
With `Q55M` the binding fitness was -1.44 natural log.
`L59P` has a binding fitness of -1.63 natural log.

Sample 5 — technique: protein-binding microarray; molecule type: double-stranded DNA, one strand shown; matrix: in vitro; concentration: 250 nM; setting: 60-bp whole probe; with: salmon DNA 0.4 mg/ml; baseline: random background probes; direction: higher = stronger binding; all sequences stand within: GCCTAGCAC … GTCTTGATTCGCTTGACGCTGCTG
Target: Interferon regulatory factor 7, full length, phosphomimetic (IRF7, Homo sapiens, UniProt Q92985, residues 1-503, S101K/S471D/S472D/S475D/S476D/S477D/S483D/S484D/S487D)
Chain of UniProt Q92985 (whole entry, unmodified, looked up): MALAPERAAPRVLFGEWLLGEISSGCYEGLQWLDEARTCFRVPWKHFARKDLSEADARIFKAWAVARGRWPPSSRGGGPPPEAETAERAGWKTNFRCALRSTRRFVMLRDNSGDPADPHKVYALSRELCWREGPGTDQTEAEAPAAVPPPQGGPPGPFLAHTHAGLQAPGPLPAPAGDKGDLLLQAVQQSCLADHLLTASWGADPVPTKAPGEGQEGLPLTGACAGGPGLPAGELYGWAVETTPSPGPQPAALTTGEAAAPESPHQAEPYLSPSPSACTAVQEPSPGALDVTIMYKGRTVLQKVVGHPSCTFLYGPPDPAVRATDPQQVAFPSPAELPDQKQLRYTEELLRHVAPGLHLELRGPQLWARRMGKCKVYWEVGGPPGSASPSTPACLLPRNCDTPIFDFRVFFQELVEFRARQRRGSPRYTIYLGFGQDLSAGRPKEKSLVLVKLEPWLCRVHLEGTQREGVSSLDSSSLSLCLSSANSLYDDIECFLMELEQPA
`TCAGTCCTCACTTCCTTACTGTGCTAG` has a log fluorescence of 1.23 z-score.
With `GATGGTTTCGGTTTCGGGACGTGCTAG` the log fluorescence was 14.3 z-score.
`GACGGCCTCCTTTTCCTGACGTGCTAG` gave a log fluorescence of 0.128 z-score.
With `GACGGTAACCTACTGCTGACGTGCTAG` the log fluorescence was -0.492 z-score.
`TTAGGATTGGGTCTCGGTTAGTGCTAG` has a log fluorescence of 1.04 z-score.
`TGTGGCTTAGTTTGTCAAAAAGTGCTA` has a log fluorescence of 0.0886 z-score.
`TTAGATTTCGCGACTGGATTAGTGCTA` has a log fluorescence of 0.296 z-score.
The log fluorescence of `GACGGTCTCGGTATCGGTACGTGCTAG` is reported as 1.92 z-score.
`TTAGATATAAGTATCGATTAGTGCTAG` gave a log fluorescence of 0.948 z-score.
With `TTAGGTTTCGACTATCTGTTAGTGCTA` the log fluorescence was 5.22 z-score.
`TTAGAACTGAGTCTCCATTAGTGCTAG` gave a log fluorescence of 0.211 z-score.
With `GACGGTCTCGGATTCGGGACGTGCTAG` the log fluorescence was 2.76 z-score.
For `TTTGCTTTCCTGATGGTCTTGTGCTAG`, the log fluorescence was 0.421 z-score.
The log fluorescence of `TCAACTTTCACTTCTCCACTGTGCTAG` is reported as 2.32 z-score.
With `TTAGGTTTCCTTTCGCTTTAGTGCTAG` the log fluorescence was 7.48 z-score.
The log fluorescence of `GACGATTTCAGACTGGAGCCGTGCTAG` is reported as -0.14 z-score.
With `TTAGGATTGCTTTTCCTTTAGTGCTAG` the log fluorescence was 1.08 z-score.
`TCATCTTTGCTTCACCCACTGTGCTAG` gave a log fluorescence of 0.511 z-score.
`GACGGTTGCGGTTTCGGGACGTGCTAG` gave a log fluorescence of 4.52 z-score.
The log fluorescence of `GACGAACTTAGTATCGAGACGTGCTAG` is reported as 0.268 z-score.
`TGCTCCTTCTGACATCAACCCGTGCTA` gave a log fluorescence of 0.292 z-score.
`GACGGTTTCCTATTCCTGACGTGCTAG` has a log fluorescence of 3.7 z-score.
For `GACGATTTCGCGTATCGAGACGTGCTA`, the log fluorescence was 0.696 z-score.
The log fluorescence of `GACGGTCTCGGTATCGGAACGTGCTAG` is reported as 2.63 z-score.
For `TTAGGTCTCGACTTTCGGTTAGTGCTA`, the log fluorescence was 3.5 z-score.
